Assay results collected from several papers.
Parts stem from different laboratories: compare values within a part only. Changes are numbered by the printed parent chain.

Study 1
Target: RNA binding protein fox-1 homolog 2, RRM domain, GST-SBP tag (RBFOX2, Homo sapiens, UniProt O43251-10, residues 100-194)
Technique: RNA Bind-n-Seq
Molecule type: RNA
Matrix: in vitro
Tested at: 365 nM
Notes: natural RNA segment, single round, ends assumed
Reference: no-protein control
Direction: higher = stronger binding
All sequences stand within: GGGAGUUCUACAGUCCGACGAUC … UGGAAUUCUCGGGUGCCAA
Residues (chain): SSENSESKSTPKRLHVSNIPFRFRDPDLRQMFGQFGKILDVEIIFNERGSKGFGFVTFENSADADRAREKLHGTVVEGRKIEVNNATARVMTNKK
Sequence | RBNS enrichment (R)
GUUCUGGGUGGGGAUAAGGAUGGGAGGAGAAAGGUUGAGACCUUGGUCUGGCUGUACUGGCAACGCGGUGCUGGGCCCAUGUCUCAUACCUUGCCCUCAGCCUAUCCCUG | 0.325
UUGGUGAUGUAAGCAAGUAAAACCCAAUGGACUCUGUUGUGAUAUCCUUUUGUGUUCCAGCCUAGGCUAAGUGUUUGUGAAAGCCAUUUGUGAGUGCUUGGAGUGUUCUU | 1.64
AUCUCCUGUGUGAAGCUCAAGGUCUUAGGAGGAUUUUGGAUUUUGUGAAGAGAUGGACAGUCUCAUCAGAAAUGUGGUUGUAUAAUGGUGAGCGCCACAUGAGUGUAGAG | 0.875
UUGUGAAAGCUAACUUUAUGAUUUCAAGCACACUUUCUACAUGAGAAACCCCUAAUGUGUGUCCAUAUGAUCUUUCUGUACAUUCUAUUCUCUUACAAAUCUGUGCAUCA | 0.763
GGGGAGGUAGCUUUCUGUAUAAGACUCUGAUUCUAAAGAGAUGAAGACUUGUGUGAAUGUACAAAGGUUUGCAUUGUAGCUGUUAGAACAGCACAGCAGGGAGUACACGA | 0.634
UUUAAUUUCAGCUACUGUGAAUUCUUUCGAUCAGUCCUUUGCUUUUUUAAAAAAUCUUUUCCAUCGUGUUAAAAAGAAAAUUAGCUAUUAGGAGAUAUUAAAAGAUUGAU | 0.577
UGAAGCUUCCAAAUCAAGAAAAGCCGGCACCAAGAACUUCCAUUCUAAUCUAGAGCUGACCAGUUUGAGCUGAUUCUCUCUUUGAAGAGUCCUUCUUGAUUGCAGUGCAG | 0.309
UUCUGUGACUGUCUUAGGUGAUGUGUAGCCCCCUCCACCUUUCCACUCAACAACCUCCCACCCCUGUCCUGCUGCAUGGUCCGGAGUCUGGGACCUACUUUGUUUUUUGU | 1.03
CCCUCAUGUUUGCUGGGACACUGCUGAGCACCCCUUGCUUACUUAGCUCAGUGAUGUUCCAGCUCCUGGCUAGGCUGCUCAGCCACUCAGCUAGACAAAAGAUCUGUGCC | 0.424
AAAAAAAAGAAAAAGCAAGAGUUUUUAUUAUGAUGUAAUACCGGUAGAAUAUUGAAUAUUUAAAAGGCACACUACAUCUGAUAGUCAAUGUAAAUAUUUUCUUUCCAAGU | 0.64
CUAGUUAAUCGUUAAGUUGACAAUGAGAGAAUUCUCAAGUUCAUACCUGGCAGCAGGCUCCCACUGAUCUUCCCCUUACAGACAGAUAACAGACAUUUCAGUUUUACCGU | 0.684
AAGGCAUAAAUGAUAAUAAGUAAGCCUGGUAAUAUGUUCUUAUUUAAGAAGAACCUGAGAAGGUUUUAUUUAUCGGUGGGGGAAGUAUAGCAAACGGUUCUAAAUGAAAA | 0.692

Study 2
Target: Myc proto-oncogene protein, bHLH-zipper, MAX partner unstated (MYC, Homo sapiens, UniProt P01106, residues 368-449)
UniProt P01106, sequence (368-449, looked up): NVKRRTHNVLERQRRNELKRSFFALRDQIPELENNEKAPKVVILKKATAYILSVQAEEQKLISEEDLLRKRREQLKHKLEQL
Technique: protein-binding microarray
Molecule type: double-stranded DNA, one strand shown
Matrix: in vitro
Tested at: not given
Notes: k-mer, scored over probes, only values ≥0.25
Direction: higher = stronger binding
Sequence | E-score
CACGAGCA | 0.305
CCCCGGCA | 0.253
CGTGACAC | 0.37
CACCTGCA | 0.257
ATGACCAC | 0.305
CGTGCTTA | 0.388
GGACCACA | 0.252
AACATGGT | 0.252
AGACACGA | 0.345
GTGCATGA | 0.353
ACAACGTG | 0.44
GCGGGGCA | 0.259
CGTGACAG | 0.301
ACGCACAC | 0.345
CATGCAGG | 0.391
CTGCACGC | 0.388
ATGGGCGC | 0.27

Study 3
Target: Sal-like protein 4, full length isoform A (SALL4, Homo sapiens, UniProt Q9UJQ4, residues 1-1053)
UniProt Q9UJQ4, sequence (whole entry, looked up): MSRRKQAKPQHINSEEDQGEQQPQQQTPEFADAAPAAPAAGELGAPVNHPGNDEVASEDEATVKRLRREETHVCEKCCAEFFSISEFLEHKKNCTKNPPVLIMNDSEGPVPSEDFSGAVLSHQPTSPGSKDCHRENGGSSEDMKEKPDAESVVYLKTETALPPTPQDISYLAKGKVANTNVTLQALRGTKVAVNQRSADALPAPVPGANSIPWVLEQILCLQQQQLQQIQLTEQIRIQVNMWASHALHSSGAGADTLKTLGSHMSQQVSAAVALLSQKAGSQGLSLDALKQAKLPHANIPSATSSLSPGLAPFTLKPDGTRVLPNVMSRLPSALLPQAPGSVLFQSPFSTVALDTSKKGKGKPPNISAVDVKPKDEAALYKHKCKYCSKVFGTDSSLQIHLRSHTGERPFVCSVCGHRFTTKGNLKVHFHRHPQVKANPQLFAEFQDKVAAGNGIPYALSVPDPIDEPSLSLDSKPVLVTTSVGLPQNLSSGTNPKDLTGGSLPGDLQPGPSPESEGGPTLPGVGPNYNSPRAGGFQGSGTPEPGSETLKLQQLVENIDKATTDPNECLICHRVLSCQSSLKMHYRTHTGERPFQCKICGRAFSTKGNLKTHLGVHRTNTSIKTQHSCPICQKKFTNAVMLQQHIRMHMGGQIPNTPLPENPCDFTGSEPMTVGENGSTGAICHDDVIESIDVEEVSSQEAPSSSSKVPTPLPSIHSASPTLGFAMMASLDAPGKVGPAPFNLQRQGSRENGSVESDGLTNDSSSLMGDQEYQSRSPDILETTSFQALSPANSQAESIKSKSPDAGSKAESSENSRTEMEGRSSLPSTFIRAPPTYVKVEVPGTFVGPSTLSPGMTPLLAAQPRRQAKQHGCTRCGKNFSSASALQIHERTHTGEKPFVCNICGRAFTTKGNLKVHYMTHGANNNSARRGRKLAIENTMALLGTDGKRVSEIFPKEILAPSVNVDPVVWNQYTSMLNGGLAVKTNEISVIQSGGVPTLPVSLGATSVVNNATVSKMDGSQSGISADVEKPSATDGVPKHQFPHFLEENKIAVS
Technique: universal PBM
Molecule type: double-stranded DNA, one strand shown
Matrix: in vitro
Tested at: 600 nM
Notes: 8-mer, flanks averaged, mean of replicates
Direction: higher = stronger binding
Sequence | E-score
ACTCAAGT | -0.0227
ACGAGTGC | -0.0953
GCTGGCTA | -0.233
CAAGTATG | 0.202
ACCCTACC | -0.146
CTAATCGC | -0.06
GACCACTA | -0.0241
CATATCGG | 0.167
AGTAACAG | 0.246
CAGCTGAC | -0.182
TAGCGATA | 0.21
CGGTCCAG | -0.362
ATGTAAGC | 0.0714
CTGTACTA | 0.0257
CAAACCAA | 0.202
AAGAAAAG | 0.0876
CTCTAACC | -0.271

Study 4
Target: Interferon regulatory factor 5, full length, phosphomimetic (IRF5, Homo sapiens, UniProt Q13568-2, residues 1-514, S451D/S453D/S456D/S462D)
Technique: protein-binding microarray
Molecule type: double-stranded DNA, one strand shown
Matrix: in vitro
Tested at: 940 nM top
Notes: 60-bp whole probe
Added: salmon DNA 0.4 mg/ml
Reference: random background probes
Direction: higher = stronger binding
All sequences stand within: GCCTAGCAC … GTCTTGATTCGCTTGACGCTGCTG
Sequence | fitted relative affinity [z-score]
GACGGTATCCTACGGCTGACGTGCTAG | -0.486
TTAGATATCAGTTTCGATCAGTGCTAG | 7.47
TTAGATTTCAGTATCGATAAGTGCTAG | 5.14
TCATTTGTTTTTTTCTAACTGTGCTAG | 1.51
CCCTTTCTCAACCTCCAGAGGTGCTAG | 1.54
AAATGTGTTAGAAACAGGTTGTGCTAG | -0.657
TTAGGTATCGCGTTTCGGTTAGTGCTA | 3.62
GACGGACTGCTATTCCTGACGTGCTAG | -0.209
GACGAACTGAGACTGGAGGCGTGCTAG | -0.186
TTGGTTTTCCTTATTGCTTCGTGCTAG | 1.88
TTAGATTTCGGGTATCGGTTAGTGCTA | 3.97
TTAGGTATCGGGTTTCGGTTAGTGCTA | 8.38
TGCTTCCTAATTCTCTTTTCGTGCTAG | 1.76
TCATTTCTCTGTTCTAGACTGTGCTAG | 1.72
TTAGTTATCGACTTTCGGTTAGTGCTA | 3.45
GCTGTCATCGATTTCTTCCCGTGCTAG | 0.392
GACGGTATCAGTTTCGAGACGTGCTAG | 5.35
AACAGAGGAATGGATACAGAGTGCTAG | 0.231
GACGGTTTCGATATCGGGACGTGCTAG | 12
GACTGTTTCGGTTCCGGGACGTGCTAG | 7.03
GGCCAAACAGTATTAAACTCGTGCTAG | -0.162
TAATTTCCATTTTCTAAATTCGTGCTA | 0.884
TTAGGATTCGACTTTCGGTTAGTGCTA | 3.57
TTAGGACTGGACTATCGGGTAGTGCTA | -0.56
GACGGTATCGGACTGGCGACGTGCTAG | 2.75

Study 5
Target: Histone acetyltransferase KAT6A, both winged helices, GST fusion (KAT6A, Homo sapiens, UniProt Q92794, residues 1-181)
Technique: protein binding microarray
Molecule type: double-stranded DNA, one strand shown
Matrix: in vitro
Tested at: not given
Notes: 8-mer, flanks averaged, mean of 2 arrays, mostly near background
Reference: not given
Direction: higher = stronger binding
Construct (chain): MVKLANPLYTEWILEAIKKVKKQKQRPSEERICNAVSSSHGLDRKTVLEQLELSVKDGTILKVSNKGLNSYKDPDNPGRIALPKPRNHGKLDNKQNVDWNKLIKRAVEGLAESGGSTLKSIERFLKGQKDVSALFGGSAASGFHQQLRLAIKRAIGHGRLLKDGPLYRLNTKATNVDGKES
Sequence | E-score
GCTGGCTA | -0.22
GGACACAA | -0.0649
ATTACGCA | 0.147
ACTCTCAC | 0.0744
AGTGTGGG | -0.293
GGTATCGA | 0.0445
GACTCCAC | -0.117
GAGTATCA | -0.0877
ATGGAAAT | -0.159
AAGCGATG | 0.0657
GCACTGCA | -0.168

Study 6
Target: CCNB3, cyclin fold, Cln2 fusion (human)
Technique: yeast growth competition, sequencing
Matrix: yeast
Notes: weak parent motif
Reference: not given
Direction: higher = stronger binding
Starting sequence: SAMHD1 docking peptide (human); ASKSRVQLFKDDP; partner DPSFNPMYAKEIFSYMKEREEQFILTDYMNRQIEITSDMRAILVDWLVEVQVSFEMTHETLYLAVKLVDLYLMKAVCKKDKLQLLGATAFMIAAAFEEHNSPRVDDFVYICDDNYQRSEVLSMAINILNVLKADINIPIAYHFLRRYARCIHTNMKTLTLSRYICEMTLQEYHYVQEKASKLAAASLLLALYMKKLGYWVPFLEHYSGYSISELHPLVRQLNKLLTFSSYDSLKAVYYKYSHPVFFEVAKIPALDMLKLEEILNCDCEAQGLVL
Variant | normalised enrichment score
D12G | 0.0308
D12Y | 0.626
Q7V | 0.214
K3A | 0.0508
K3L | 0.0976
K3I | 0.0887
K3R | 0.0864
D12N | 0.112
S2M | -0.0971
K3V | -0.182
K3C | 0.0442
S4Y | -0.242
K10Y | -0.35
L8P | -0.169
D12H | 0.17

Excerpt of the above (study 4):
Sequence | fitted relative affinity [z-score]
TGCTTCCTAATTCTCTTTTCGTGCTAG | 1.76
TCATTTCTCTGTTCTAGACTGTGCTAG | 1.72
TTAGTTATCGACTTTCGGTTAGTGCTA | 3.45
GCTGTCATCGATTTCTTCCCGTGCTAG | 0.392
GACGGTATCAGTTTCGAGACGTGCTAG | 5.35
AACAGAGGAATGGATACAGAGTGCTAG | 0.231
GACGGTTTCGATATCGGGACGTGCTAG | 12
GACTGTTTCGGTTCCGGGACGTGCTAG | 7.03
GGCCAAACAGTATTAAACTCGTGCTAG | -0.162
TAATTTCCATTTTCTAAATTCGTGCTA | 0.884
TTAGGATTCGACTTTCGGTTAGTGCTA | 3.57
TTAGGACTGGACTATCGGGTAGTGCTA | -0.56
GACGGTATCGGACTGGCGACGTGCTAG | 2.75
